# Published values from different studies.
# Each line is one published result; not all experiments were run side by side.
# B1: HigA 1-104 (Proteus vulgaris, UniProt Q7A224); selenomethionine; sequence looked up; chain MRQFKVSHPGEMIARDLEDMGVSGRRFAHNIGVTPATVSRLLAGKTALTPSLSIRIAAALGSTPEFWLRLQSNYDLRQLENQIDTSGIVLYGESNEQQQNAQEH
# B2: crcB 1-128 R29K/N43S/R124C (Bordetella pertussis, UniProt Q7VYU0); chain MLTYAPLNFIAIGIGATLGAWLRWVLGLKLNGAGWPWGTLTASLVGGYLIGVMVALIASHPEWPAWIRLAAVTGFLGGLTTFSTFSAETVDMLERGVYATAAAYAGASLAGSLAMTGLGLATVCLLLR
# B3: glnR 120-223 (Saccharopolyspora erythraea, UniProt A4FQD5); chain EGDGMLTVGDLVIEESTYTARLKGRALELTYKEFELLKYLAQHAGRVFTRAQLLQEVWGYDFFGGTRTVDVHVRRLRAKLGPEYDSMIGTVRNVGYKFVRPSRS
# B4: PALB2 DBD 1-195 (Homo sapiens, UniProt Q86YC2); MTSSL spin label position 11; chain MDEPPGKPLSCEEKEKLKEKLAFLKREYSKTLARLQRAQRAEKIKHSIKKTVEEQDALSQQDLSPQLKHSEPKNKIAVYDKLHIKTHLDEETGEKTSITLDVGPESFNPGDGPGGLPIQRTDDTQEHFPHRVSDPSGEQKQKLPSRRKKQQKRTFISQERDAVFGTDSLRLSGKRLKEQEEISSKNPARSPVTEW
# B5: mpr D188A (Mycobacterium smegmatis, UniProt Q50442); chain MTTPQPYPGMPSQPAPQGVPYPPQQPAKKKRKWPAIVGGVIALMIVGSIFNDDKKDTTPAENTATVAQAPAAAPTKEVPETTATINTPVRDGKFEFVVRSVEPGLSEVGDNPFLNQKAQGQFVIVTLSVQNIGDRPQGFSPSNQKLFDTEGRSFETDTSAQIALDNNDIAVWDNINPGNTVDVSLVYAMPVDAVPASIELHDSMFSGGVTVNLTP
# B6: hin (Salmonella enterica, UniProt P03013); chain MATIGYIRVSTIDQNIDLQRNALTSANCDRIFEDRISGKIANRPGLKRALKYVNKGDTLVVWKLDRLGRSVKNLVALISELHERGAHFHSLTDSIDTSSAMGRFFFHVMSALAEMERELIVERTLAGLAAARAQGRLGGRPRAINKHEQEQISRLLEKGHPRQQLAIIFGIGVSTLYRYFPASRIKKRMN
# B7: pnp 1-763 R112A (Mycobacterium smegmatis, UniProt A0QVQ5); chain MSVVELEDGVYESTAVIDNGSFGTRTIRFETGRLAQQAAGSAVAYLDDETMLLSATTASKNPKDHFDFFPLTVDVEERMYAAGRIPGSFFRREGRPSTDAILTCRLIDRPLAPSFVDGLRNEIQVVVTVMSLDPKDLYDVLAINAASMSTQLAGLPFSGPVGGARIALIDGTWVAFPTVEQLERAVFDMVVAGRIVGDGDSADVAIMMVEAEATENVVELVAGGAQAPTEAVVAEGLEAAKPFIKALCAAQQELADRAAKPAGEYPVFPDYEADVYDAVASVATEALAEALTIAGKTERNDRTDEIKVEVLERLAEPYAGREKEIGAAFRSLTKKLVRQRILTDHFRIDGRGITDIRALSAEVAVIPRAHGSALFERGETQILGVTTLDMIKMAQQIDSLGPENTKRYMHHYNFPPYSTGETGRVGSPKRREIGHGALAERALVPVLPSIEEFPYAIRQVSEALGSNGSTSMGSVCASTLALLNAGVPLKAPVAGIAMGLVSDDVDVDGKVEKRYVALTDILGAEDAFGDMDFKVAGTKDFVTALQLDTKLDGIPSQVLAGALSQAKDARLTILDVMAEAIDRPDEMSPYAPRITTIKVPVDKIGEVIGPKGKMINSITEETGAQISIEDDGTVFVGAADGLSAQAAIDKINAIANPQLPKVGERFLGTVVKTTDFGAFVSLLPGRDGLVHISKLGKGKRIAKVEDVVKVGDKLRVEIADIDNRGKISLVLVAEESAESAESAGDKGAEKAEGAAADVTPAEA
# B8: FAM222A del91-300 (Homo sapiens, UniProt Q5U5X8); sequence looked up; chain MLACLQRTQNAPGQHLACPSKSLELRKCEAVASAMHSSRYPSPAELDAYAEKVANSPLSIKIFPTNIRVPQHKHLSRTVNGYDTSGQRYSRAYSGSTVASKSPEACGGRAYERASGSPLNCGVGLPTSFTVGQYFAAPWNSVLVTPTSDCYNPAAAVVVTELGPGAARELAGPPADALSGLPSKSVCNTSVLSSSLQSLEYLINDIRPPCIKEQMLGKGYETVAVPRLLDHQHAHIRLPVYR
# B9: pnp 1-763 R430A (Mycobacterium smegmatis, UniProt A0QVQ5); chain MSVVELEDGVYESTAVIDNGSFGTRTIRFETGRLAQQAAGSAVAYLDDETMLLSATTASKNPKDHFDFFPLTVDVEERMYAAGRIPGSFFRREGRPSTDAILTCRLIDRPLRPSFVDGLRNEIQVVVTVMSLDPKDLYDVLAINAASMSTQLAGLPFSGPVGGARIALIDGTWVAFPTVEQLERAVFDMVVAGRIVGDGDSADVAIMMVEAEATENVVELVAGGAQAPTEAVVAEGLEAAKPFIKALCAAQQELADRAAKPAGEYPVFPDYEADVYDAVASVATEALAEALTIAGKTERNDRTDEIKVEVLERLAEPYAGREKEIGAAFRSLTKKLVRQRILTDHFRIDGRGITDIRALSAEVAVIPRAHGSALFERGETQILGVTTLDMIKMAQQIDSLGPENTKRYMHHYNFPPYSTGETGRVGSPKAREIGHGALAERALVPVLPSIEEFPYAIRQVSEALGSNGSTSMGSVCASTLALLNAGVPLKAPVAGIAMGLVSDDVDVDGKVEKRYVALTDILGAEDAFGDMDFKVAGTKDFVTALQLDTKLDGIPSQVLAGALSQAKDARLTILDVMAEAIDRPDEMSPYAPRITTIKVPVDKIGEVIGPKGKMINSITEETGAQISIEDDGTVFVGAADGLSAQAAIDKINAIANPQLPKVGERFLGTVVKTTDFGAFVSLLPGRDGLVHISKLGKGKRIAKVEDVVKVGDKLRVEIADIDNRGKISLVLVAEESAESAESAGDKGAEKAEGAAADVTPAEA
# B10: pecS 15-179 (Pectobacterium atrosepticum, UniProt Q6D5K4); chain DAVDAILEQWRRERPDLDASPMGPIGRLRRCAVLMDQRLESCFSRFDLSSWEFDMLATLRRAGAPHCLSPTELFSTLMVTSGTMTHRLKRLETRGFIERVQNELDARSTLVQLTSSGLELINRAVEAHIENERQVLSVLPAEVLAALDTNLAALLRGLESHNKGN
# B11: NFR5 276-595 (Lotus japonicus, UniProt Q70KR1); chain ALNRTASSAETADKLLSGVSGYVSKPNVYEIDEIMEATKDFSDECKVGESVYKANIEGRVVAVKKIKEGGANEELKILQKVNHGNLVKLMGVSSGYDGNCFLVYEYAENGSLAEWLFSKSSGTPNSLTWSQRISIAVDVAVGLQYMHEHTYPRIIHRDITTSNILLDSNFKAKIANFAMARTSTNPMMPKIDVFAFGVLLIELLTGRKAMTTKENGEVVMLWKDMWEIFDIEENREERIRKWMDPNLESFYHIDNALSLASLAVNCTADKSLSRPSMAEIVLSLSFLTQQSSNPTLERSLTSSGLDVEDDAHIVTSITAR
# B12: EspA native filaments (Escherichia coli, UniProt Q47184); chain MDTSTTASVASANASTSTSMAYDLGSMSKDDVIDLFNKLGVFQAAILMFAYMYQAQSDLSIAKFADMNEASKESTTAQKMANLVDAKIADVQSSSDKNAKAQLPDEVISYINDPRNDITISGIDNINAQLGAGDLQTVKAAISAKANNLTTTVNNSQLEIQQMSNTLNLLTSARSDMQSLQYRTISGISLGK
# B13: pnp 1-763 K534A (Mycobacterium smegmatis, UniProt A0QVQ5); chain MSVVELEDGVYESTAVIDNGSFGTRTIRFETGRLAQQAAGSAVAYLDDETMLLSATTASKNPKDHFDFFPLTVDVEERMYAAGRIPGSFFRREGRPSTDAILTCRLIDRPLRPSFVDGLRNEIQVVVTVMSLDPKDLYDVLAINAASMSTQLAGLPFSGPVGGARIALIDGTWVAFPTVEQLERAVFDMVVAGRIVGDGDSADVAIMMVEAEATENVVELVAGGAQAPTEAVVAEGLEAAKPFIKALCAAQQELADRAAKPAGEYPVFPDYEADVYDAVASVATEALAEALTIAGKTERNDRTDEIKVEVLERLAEPYAGREKEIGAAFRSLTKKLVRQRILTDHFRIDGRGITDIRALSAEVAVIPRAHGSALFERGETQILGVTTLDMIKMAQQIDSLGPENTKRYMHHYNFPPYSTGETGRVGSPKRREIGHGALAERALVPVLPSIEEFPYAIRQVSEALGSNGSTSMGSVCASTLALLNAGVPLKAPVAGIAMGLVSDDVDVDGKVEKRYVALTDILGAEDAFGDMDFAVAGTKDFVTALQLDTKLDGIPSQVLAGALSQAKDARLTILDVMAEAIDRPDEMSPYAPRITTIKVPVDKIGEVIGPKGKMINSITEETGAQISIEDDGTVFVGAADGLSAQAAIDKINAIANPQLPKVGERFLGTVVKTTDFGAFVSLLPGRDGLVHISKLGKGKRIAKVEDVVKVGDKLRVEIADIDNRGKISLVLVAEESAESAESAGDKGAEKAEGAAADVTPAEA
# UniProt P32326, sequence (whole entry, looked up): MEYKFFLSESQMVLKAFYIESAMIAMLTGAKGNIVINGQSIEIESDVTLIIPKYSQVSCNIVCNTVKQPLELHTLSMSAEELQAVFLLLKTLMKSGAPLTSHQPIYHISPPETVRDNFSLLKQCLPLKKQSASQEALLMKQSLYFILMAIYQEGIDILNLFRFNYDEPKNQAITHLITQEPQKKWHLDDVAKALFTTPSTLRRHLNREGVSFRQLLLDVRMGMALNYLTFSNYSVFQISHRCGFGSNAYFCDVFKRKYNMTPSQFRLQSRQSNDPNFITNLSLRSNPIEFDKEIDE
Substance,tested on,test,system,setting,scale,measurement,result
B1 (HigA 1-104),itself,X-ray crystallography,,,,binding,binds
"ureR (Escherichia coli, UniProt P32326)",itself,SEC,,,,binding,binds
B2 (crcB 1-128 R29K/N43S/R124C),itself,SEC,,,,binding,binds
B3 (glnR 120-223),itself,crystal structure,,,,binding,binds
"fliC mature (Salmonella Typhimurium, UniProt P06179)",itself,fluorescence microscopy,,,,binding,binds
B4 (PALB2 DBD 1-195),itself,DEER spectroscopy,,,,binding,binds
B5 (mpr D188A),itself,cross-linking,,with: GTP,,binding,binds
B6 (hin),itself,native gel,,,,binding,binds
B7 (pnp 1-763 R112A),itself,SEC,,,,binding,binds
B8 (FAM222A del91-300),itself,SDD-AGE,,,,binding,binds
B9 (pnp 1-763 R430A),itself,SEC,,,,binding,binds
insulin human,,item: NEGR1 mRNA,"EcoHIV-infected mouse, brain","i.p., dose not given",reference: PBS,fold change,1.25
MMIALGVACAIALAIAAVYF (VAMP2 TMD),itself,X-ray crystallography,peptide,,,binding,binds
B10 (pecS 15-179),itself,crystal structure,,,,binding,binds
B11 (NFR5 276-595),itself,native gel,,,,binding,binds
B12 (EspA native filaments),itself,AFM imaging,,,,binding,binds
B13 (pnp 1-763 K534A),itself,SEC,,,,binding,binds

# Some of these lines once more:
Substance,tested on,test,system,setting,scale,measurement,result
B9 (pnp 1-763 R430A),itself,SEC,,,,binding,binds
